Measured values of several laboratories.
Each line is one published result; not all experiments were run side by side. “And” joins repeats or separate records; there may be more than shown. Numbers after ± are the reported error.

`CNc1ccc(-c2nc3ccc(O)cc3s2)cc1` [carbon-11 labelled] gave an SUV of 0.866 ± 0.386 (microPET/CT imaging; APP/PS1 mouse, AD model, brain; intravenous, 5 min).
`CNC(=O)c1ccc(-c2cnc3ncc(Cc4ccc5ncccc5c4)n3n2)cc1F` — result for “patients with adverse event”: 0% (refers to: Cough, all grades; gastric cancer patients; oral, 600 mg twice daily, expansion cohort, any causality).
For `CC(C)(C)c1ccc(C(O)CCCN2CCC(C(O)(c3ccccc3)c3ccccc3)CC2)cc1` (stereo not drawn), the heart rate was 209 ± 0.1 beats/min (male Hartley guinea pigs, anaesthetized; intravenous, 0.3 mg/kg over 10 min, after infusion).
Under “Cmax ratio female over male”, `Cc1nc2cccc(OCC(C)(C)C(=O)NC(C)C)c2c(N)c1C(=O)O` is recorded as 1.04 ± 0.6 (Sprague-Dawley rat, plasma; oral, 30 mg/kg, day 7, 7-day repeated dosing; baseline: female over male).
For `C=CC(=O)NC1CCN(c2ncc3ncnc(Nc4ccc(Oc5ccc6c(c5)ncn6C)c(C)c4)c3n2)CC1`, the AUC(0-tz) was 0.00301 µM·h (refers to: total radioactivity; healthy male volunteers, plasma; intravenous, 100 µg, 14C microtracer, geometric mean).
`C[C@H](CS)C(=O)N1CCC[C@H]1C(=O)O` gave a heart rate of 224 ± 0.4 beats/min (male Hartley guinea pigs, anaesthetized; intravenous, 30 mg/kg over 10 min, after infusion).
For `COc1cc(Nc2ncc3c(n2)-c2ccc(Cl)cc2C(c2c(F)cccc2OC)=NC3)ccc1C(=O)O`, “decreased platelet count incidence” read 21% (patients; oral, dose not given, grade 1, any attribution, with: pembrolizumab).
`CN1C(=O)[C@@H](NC(=O)c2nnc(Cc3ccccc3)[nH]2)COc2cccnc21` — result for “participants with any AE of special interest”: 0% (phase I single ascending dose; human, male and female; oral, 30 mg, fasted).
`O=C1NCCc2nc(OCc3cccc(F)c3)ccc21` — result for “Irwin test score”: 0 (refers to: skin color; Sprague-Dawley rat male; oral, 100 mg/kg, 30 min; direction not given).
`C[C@@H](Oc1ccc(S(C)(=O)=O)cc1C(=O)N1C[C@@H]2C[C@]2(c2cc(C(F)(F)F)on2)C1)C(F)(F)F`: “incidence of Flatulence” 16.7% (human; oral, 25 mg).
With `O=C(O)CSc1nnc(Br)n1-c1ccc(C2CC2)c2ccccc12` the body weight was 35.2 g and 38.2 g and 33.7 g and 38.7 g and 42.4 g and 39.1 g (KM mouse, chronic hyperuricaemia model; dose not given, day 27).
With `CCCCc1oc2ccccc2c1C(=O)c1cc(I)c(OCCN(CC)CC)c(I)c1` the heart rate was 231 ± 0.7 beats/min (male Hartley guinea pigs, anaesthetized; intravenous, 20 mg/kg group, baseline before infusion).
The EC50 of `NCCCCCNCc1ccc(CNC(=O)c2csc3nc[nH]c(=O)c23)cc1` is reported as over 100 µM (haemolysis; human red blood cells; 1 h, 37 °C).
`COc1cc(CCC(=O)O)ccc1OS(=O)(=O)O`: CSF concentration “not detected” (human CSF; concentration not given, mean).
`CN(C(=O)n1cnc(-c2cccnc2)c1)[C@H]1CC[C@H](O)CC1` gave a tissue concentration of 13.1 ± 1 ng/g (rat, cerebellum; oral, 10 mg/kg daily for 5 days, 48 h).
For `CN(C)C(=N)N=C(N)N`, “subjects with adverse event” read 4.5% (refers to: phlebitis; healthy men; oral, dose not given, 8 days, treatment-emergent, crossover trial).
For `Cc1cc(-c2nccc3c2ccn3CC(=O)Nc2ccc(-c3cnccn3)cn2)ccn1`, “respiratory thoracic mediastinal TEAEs” read 0% (healthy human volunteers; oral, 40 mg single dose, single ascending dose).
`COc1ccc(-n2nc(C(N)=O)c3c2C(=O)N(c2ccc(N4CCCCC4=O)cc2)CC3)cc1` has an ED50 of 27.6 ± 6.3 mg (human, plasma; oral, Final population PK model).
`CC(=O)N(C)[C@H]1CCN(C(=O)c2cnc3c(c2)C[C@](C)(c2ccc(F)cc2)N3)C1`: “adverse events leading to discontinuation” 0% (healthy male subjects, multiple rising dose; oral, 15 mg once daily).
`COC(=O)N[C@H](C(=O)N[C@@H](Cc1ccccc1)[C@@H](O)CN(Cc1ccc(-c2ccccn2)cc1)NC(=O)[C@@H](NC(=O)OC)C(C)(C)C)C(C)(C)C` — result for “plateau flux concentration”: 146 µg/mL (modified PAMPA Franz cell; phosphate buffer with HPMCAS; 3 h, 500 rpm, 460 nm particles, with: no BSA).
For `CNCCOC12CC3(C)CC(C)(CC(Cn4ncc(-c5ccc(N6CCc7cccc(C(=O)Nc8nc9ccccc9s8)c7C6)nc5C(=O)O)c4C)(C3)C1)C2`, “mean arterial pressure change” read -15% (beagle dog, male, anaesthetised; intravenous bolus, 0.03 mg/kg, 150 min; baseline: baseline).
For `CO[C@@H]1[C@H](OC(=O)N2CC(CCN3CCOCC3)C2)CC[C@]2(CO2)[C@H]1[C@@]1(C)O[C@@H]1CC=C(C)C`, “activated partial thromboplastin time” read -0.4 ± 1.4 s (humans; subcutaneous, 0.6 mg twice weekly for 4 weeks, day 28; baseline: baseline).
`CCc1cc(C(=O)NC)c2nccc(N3CCc4c(cc(Cn5ccnc5)cc4-c4cn(C)nc4C(F)(F)F)C3=O)c2c1`: “blood CK change” -20.1% (Sprague Dawley rats; oral, 100 mg/kg twice daily, 7 days; baseline: vehicle).
With `COc1ccc2c(=O)n(C)c(-c3ccccc3)nc2c1` the tissue concentration was 2.95 ng/mL (Sprague-Dawley rat, male, testis; oral, 30 mg/kg, 0.5 h).
Under “lymphopenia TEAE incidence”, `COc1ccc([C@@H](O)c2cc(-c3ncnc4cc(N5CCOCC5)ccc34)c(F)cc2Cl)nn1` is recorded as 17% (locally advanced rectal cancer patients; 250 mg, with: capecitabine and radiotherapy).
`Cc1ccc([C@@H]2O[C@H](CO)[C@@H](O)[C@H](O)[C@H]2O)cc1Cc1ccc(-c2ccc(F)cc2)s1` — result for “urinary chloride excretion change”: -59.3 mEq (Japanese type 2 diabetes patients; 25 mg, day 17, 24 h urine collection; baseline: baseline).
`CCn1cc(C(=O)N2CCOCC2)c(=O)c2cc(NC3Cc4ccccc4C3)cnc21` has a Cmax of 1230 ng/mL (human, fed; oral suspension, 300 mg/day twice daily, day 8, arithmetic mean).
Under “volume of distribution at steady state”, `OCc1ccc(-c2nn(Cc3ccccc3)c3ccccc23)o1` is recorded as 2.68 L/kg (male CD1 mouse, plasma; intravenous, 5 mg/kg).
`CCN1/C(=C/C(C)=O)Sc2ccc(F)cc21` has a QT interval of 239 ± 23 ms (cynomolgus monkey; oral, 10 mg/kg, 2 h post-dose).
`C[C@@H](Nc1cc(F)cc(F)c1)c1cc(C(=O)N(C)C)cc2c(=O)cc(N3CCOCC3)oc12` — result for “treatment-related serious adverse events”: 0% (refers to: Clostridioides difficile colitis; patients with advanced solid tumours; oral, dose not given, dose expansion phase I).
The concentration of `CN(C(=O)n1cnc(-c2ccc[n+]([O-])c2)c1)[C@H]1CC[C@H](O)CC1` is reported as 8.8 ± 6.8 ng/g (Wistar rat, medulla oblongata; oral, 10 mg/kg/day of BIA 10-2474, 24 h, repeated 5 days).
`Cc1cc(C)c(CNC(=O)c2cc(Cl)c3c(c2C)O[C@@](C)([C@H]2CC[C@H](N(C)C)CC2)O3)c(=O)[nH]1`: “adverse event Diarrhea” 45.8% (relapsed/refractory NHL patients; oral, 200 mg once daily, onset after cycle 1 day 1).
`Cl.[2H]C([2H])([2H])CC(=O)c1cnc(NC(=O)C2CC2)cc1Nc1cccc(-c2ncn(C([2H])([2H])[2H])n2)c1OC` has a half-life of 7.6 h (human, non-fasted; oral, 30 mg twice daily, day 14, multiple dose, tablet, geometric mean).
For `OC[C@H](Cc1cccc(O)c1)[C@H](CO)Cc1cccc(O)c1`, CSF concentration read “not detected” (human CSF; concentration not given, mean).
Under “participants with oropharyngeal pain TEAE”, `C=CC(=O)NC1CCN(c2ncc3ncnc(Nc4ccc(Oc5ccc6c(c5)ncn6C)c(C)c4)c3n2)CC1` is recorded as 6.3% (healthy male humans; oral, 240 mg).
`O=C(O)CNC(=O)c1ccccc1O` — result for CSF concentration: “not detected” (human CSF; concentration not given, mean).
For `CC(C)(C)c1ccc(O)c(CN(Cc2cc(C(C)(C)C)ccc2O)C2CCC(NC(N)=O)CC2)c1` (stereo not drawn), “terminal elimination rate constant” read 7.78e-05 s⁻¹ (C57BL/6 mice, male, plasma; intraperitoneal, 10 mg/kg, single dose).
Under “systolic blood pressure”, `C[C@@H](O)CCOC(=O)C[C@@H](C)O` is recorded as 112 mmHg (human; oral drink, dose not given, 120 min post dose, mean).
`COCCOc1cnc2ccn([C@H](C)c3nnc4c(F)cc(-c5cnn(C)c5)cn34)c(=O)c2c1` gave a Ctrough of 560 ng/mL (patients; oral, 300 mg once daily, day 28, 24 h postdose, dose escalation).
`CC(C)NC(=O)COc1cccc(-c2nc(Nc3ccc4[nH]ncc4c3)c3ccccc3n2)c1` gave an AUC(0-tau) of 9710 ng·h/mL (human male, plasma; oral, 200 mg, day 6, fed, alone, geometric mean).
Under “treatment-related decreased appetite”, `C=CCN1CC(=O)N2[C@@H](Cc3ccc(O)cc3F)C(=O)N(Cc3cccc(N4CC(N5CCN(CC)CC5)C4)n3)C[C@@H]2N1C(=O)NCc1ccccc1` is recorded as 0% (advanced solid tumour patients; oral, 80 mg twice daily, grade ≥3, dose-escalation).
With `CCOc1c([C@H](C)n2nc(C)c3c(N)ncnc32)cc(Cl)c(F)c1[C@@H]1CNC(=O)C1` the AUC(0-last) was 2.11 µM·h (patients, monotherapy; oral, 5 mg once daily, cycle 1 day 1).
`O=C(O)CCC(=O)O.[2H]C([2H])([2H])Oc1cc(C)c2[nH]ccc2c1CN1CC[C@@H](C2CC2)C[C@H]1c1ccc(C(=O)O)cc1` — result for “subjects with TEAE Appendicitis”: 0% (multiple ascending dose; healthy Chinese subjects; 300 mg once daily).
`O=C(O)c1ccc(O)c(OS(=O)(=O)O)c1`: CSF concentration “not detected” (human CSF; concentration not given, mean).
The plasma concentration of `C[C@H]1O[C@@H](O[C@H]2CC[C@@]3(C)[C@@H](CC[C@]4(C)[C@@H]3C=C[C@]35OC[C@@]6(CCC(C)(C)C[C@H]63)[C@@H](O)C[C@]54C)[C@]2(C)CO)[C@H](O)[C@@H](O[C@@H]2O[C@H](CO)[C@@H](O)[C@H](O)[C@H]2O)[C@H]1O` is reported as 0 ng/mL (UHPLC-MS/MS; mouse, plasma; oral, 50 mg/kg, 10 h).
`O=C(OC(C(F)(F)F)C(F)(F)F)N1CCN(Cc2cccc(Oc3ccccc3)c2)CC1` has a k2 of 0.511 min⁻¹ (PET blocking study; rhesus monkey, brain THA; 0.3 mg/kg, compound pretreatment, with: [18F]T-401 tracer).
For `OC[C@H]1O[C@@H](c2ccc(Cl)c(Cc3ccc(O[C@H]4CCOC4)cc3)c2)[C@H](O)[C@@H](O)[C@@H]1O`, “change in haematocrit” read -0.1% (Japanese type 1 diabetes patients, blood; 25 mg, day 28; baseline: baseline).
`Cc1cc(NC2CCN(C(=O)OC3CCN(C(=O)/C=C/CN(C)C)C3)CC2)n2ncc(C(C)C)c2n1` (stereo not drawn) — result for “patients with adverse event”: 11% (Phase I dose escalation CTCAE v4.0, refers to: peripheral oedema; patients with advanced solid tumours; dose not given, Total dosing any grade).
Under “lanthanide tissue concentration”, `CC(C(=O)NCC(=O)NCC(CNC(=O)CNC(=O)C(C)N1CCN(CC(=O)[O-])CCN(CC(=O)[O-])CCN(CC(=O)[O-])CC1)(CNC(=O)CNC(=O)C(C)N1CCN(CC(=O)[O-])CCN(CC(=O)[O-])CCN(CC(=O)[O-])CC1)CNC(=O)CNC(=O)C(C)N1CCN(CC(=O)[O-])CCN(CC(=O)[O-])CCN(CC(=O)[O-])CC1)N1CCN(CC(=O)[O-])CCN(CC(=O)[O-])CCN(CC(=O)[O-])CC1.[Gd+3].[Gd+3].[Gd+3].[Gd+3]` (stereo not drawn) is recorded as 5.7 ± 2.7 nmol/g (cynomolgus monkey, liver; dose not given, day 5).
The D-BIL level of `Oc1ccc(/C=C/c2cc(O)cc(O)c2)cc1` is reported as 0.02 mg/dL and 0.01 mg/dL (rat, azoxymethane-injected, blood; in vivo, 100 mg/kg, at sacrifice).
With `O=C(CCCN1CC=C(n2c(=O)[nH]c3ccccc32)CC1)c1ccc(F)cc1` the heart rate was 241 ± 0.8 beats/min (male Hartley guinea pigs, anaesthetized; intravenous, 0.03 mg/kg group, baseline before infusion).
The tissue concentration of `O=C1c2ccncc2C(=O)c2c1[nH]c1ccccc21` is reported as 0.001 ± 0.002 nmol/mg (Sprague-Dawley rat, male, lung; oral, 1 mg/kg, 24 h).
Under “adverse events grade 3”, `CC(C)C[C@H](NC(=O)CNC(=O)c1cc(Cl)ccc1Cl)B(O)O` is recorded as 0% (newly diagnosed multiple myeloma patients; oral, dose not given, Headache, maintenance).
`Cc1cc2sc(N)nc2c2cccnc12` gave a last concentration of 33.3 ng/mL (female BALB/c mice, plasma; intraperitoneal, 30 mg/kg, 24 h).
The TEAE incidence of `C[C@@H](N)C1CCN(S(=O)(=O)c2cccc3cnccc23)CC1` is reported as 0% (refers to: Bradycardia; healthy volunteers; 150 mg, fed).
For `Cc1ccc(C(=O)N(CCCN)C(c2nc3snc(C)c3c(=O)n2Cc2ccccc2)C(C)C)cc1` (stereo not drawn), “patients with adverse events” read 0% (refers to: Stomatitis; human patients; intravenous, 16 mg/day, CTCAE grade ≥3).
Under “peripheral volume of distribution”, `Cn1cnc2c(F)c(Nc3ccc(Br)cc3Cl)c(C(=O)NOCCO)cc21` is recorded as 70.4 L (human, plasma; oral, dose not given, sequential zero-first-order absorption).
